Published values collected from several papers.
Protocols differ between the studies behind these lines. Several values in a cell are separate wells, animals, samples, runs or records. ± gives the spread as reported.
BCHE: Cholinesterase (BCHE, Homo sapiens, UniProt P06276)
UniProt P06276, sequence (whole entry, looked up): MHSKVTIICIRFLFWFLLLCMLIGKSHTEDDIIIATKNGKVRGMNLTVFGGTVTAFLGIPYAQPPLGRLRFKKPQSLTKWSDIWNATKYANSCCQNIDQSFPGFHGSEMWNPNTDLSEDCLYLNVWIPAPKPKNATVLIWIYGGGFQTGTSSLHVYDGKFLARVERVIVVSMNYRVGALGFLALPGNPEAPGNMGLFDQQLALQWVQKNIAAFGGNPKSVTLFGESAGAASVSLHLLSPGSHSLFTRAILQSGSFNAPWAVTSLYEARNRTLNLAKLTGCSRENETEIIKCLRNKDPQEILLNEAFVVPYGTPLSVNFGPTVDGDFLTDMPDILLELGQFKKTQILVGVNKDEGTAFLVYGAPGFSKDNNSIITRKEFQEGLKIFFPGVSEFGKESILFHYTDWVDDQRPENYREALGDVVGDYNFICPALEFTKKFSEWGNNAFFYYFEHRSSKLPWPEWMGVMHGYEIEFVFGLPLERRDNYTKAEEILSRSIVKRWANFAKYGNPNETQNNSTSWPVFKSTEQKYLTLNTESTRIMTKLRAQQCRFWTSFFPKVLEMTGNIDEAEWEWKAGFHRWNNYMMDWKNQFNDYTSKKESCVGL
UniProt O43614, sequence (whole entry, unmodified, looked up): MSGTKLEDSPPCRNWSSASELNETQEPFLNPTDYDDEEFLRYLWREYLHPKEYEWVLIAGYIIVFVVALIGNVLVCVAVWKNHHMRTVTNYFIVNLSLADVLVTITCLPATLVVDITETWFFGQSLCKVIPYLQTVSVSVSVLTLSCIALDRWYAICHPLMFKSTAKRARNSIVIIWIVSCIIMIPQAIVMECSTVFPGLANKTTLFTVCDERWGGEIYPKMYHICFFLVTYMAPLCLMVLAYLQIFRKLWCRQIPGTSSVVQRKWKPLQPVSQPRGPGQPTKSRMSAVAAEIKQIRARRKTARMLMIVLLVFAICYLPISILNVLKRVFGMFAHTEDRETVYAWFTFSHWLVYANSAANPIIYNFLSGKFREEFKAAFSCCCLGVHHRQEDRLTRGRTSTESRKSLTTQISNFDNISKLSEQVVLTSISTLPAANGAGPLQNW
UniProt Q12884, sequence (whole entry, looked up): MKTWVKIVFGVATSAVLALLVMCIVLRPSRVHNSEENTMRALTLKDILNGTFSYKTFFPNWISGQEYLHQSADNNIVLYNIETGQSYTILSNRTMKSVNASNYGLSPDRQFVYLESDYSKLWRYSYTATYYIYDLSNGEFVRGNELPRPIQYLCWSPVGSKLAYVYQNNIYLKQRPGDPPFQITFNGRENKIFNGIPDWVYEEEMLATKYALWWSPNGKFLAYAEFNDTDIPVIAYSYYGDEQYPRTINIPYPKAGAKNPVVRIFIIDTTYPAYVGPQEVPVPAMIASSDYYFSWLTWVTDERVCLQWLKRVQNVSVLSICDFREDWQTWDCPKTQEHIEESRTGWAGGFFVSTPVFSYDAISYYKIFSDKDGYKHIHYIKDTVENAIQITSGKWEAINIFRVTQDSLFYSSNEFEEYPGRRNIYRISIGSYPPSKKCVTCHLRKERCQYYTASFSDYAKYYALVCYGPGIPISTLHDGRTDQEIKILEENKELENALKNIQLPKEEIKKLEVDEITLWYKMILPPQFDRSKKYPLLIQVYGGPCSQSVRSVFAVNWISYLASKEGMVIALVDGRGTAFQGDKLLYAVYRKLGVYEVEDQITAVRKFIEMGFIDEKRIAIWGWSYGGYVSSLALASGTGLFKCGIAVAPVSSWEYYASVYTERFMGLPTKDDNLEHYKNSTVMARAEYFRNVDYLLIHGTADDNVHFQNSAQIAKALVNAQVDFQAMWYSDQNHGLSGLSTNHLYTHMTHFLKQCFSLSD
UniProt P14416, sequence (whole entry, looked up): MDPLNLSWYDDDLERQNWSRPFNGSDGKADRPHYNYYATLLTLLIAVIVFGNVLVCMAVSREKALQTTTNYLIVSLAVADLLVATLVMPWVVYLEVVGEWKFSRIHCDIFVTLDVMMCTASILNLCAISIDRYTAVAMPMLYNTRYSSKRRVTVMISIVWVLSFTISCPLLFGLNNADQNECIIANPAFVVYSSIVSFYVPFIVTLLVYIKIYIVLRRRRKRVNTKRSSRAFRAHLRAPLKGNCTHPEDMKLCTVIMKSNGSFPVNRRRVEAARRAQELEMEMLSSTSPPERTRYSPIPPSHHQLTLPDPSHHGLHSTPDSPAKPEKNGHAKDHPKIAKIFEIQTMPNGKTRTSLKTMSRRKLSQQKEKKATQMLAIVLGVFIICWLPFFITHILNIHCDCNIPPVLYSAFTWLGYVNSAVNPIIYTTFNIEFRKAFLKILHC
UniProt Q9UNW8, sequence (whole entry, looked up): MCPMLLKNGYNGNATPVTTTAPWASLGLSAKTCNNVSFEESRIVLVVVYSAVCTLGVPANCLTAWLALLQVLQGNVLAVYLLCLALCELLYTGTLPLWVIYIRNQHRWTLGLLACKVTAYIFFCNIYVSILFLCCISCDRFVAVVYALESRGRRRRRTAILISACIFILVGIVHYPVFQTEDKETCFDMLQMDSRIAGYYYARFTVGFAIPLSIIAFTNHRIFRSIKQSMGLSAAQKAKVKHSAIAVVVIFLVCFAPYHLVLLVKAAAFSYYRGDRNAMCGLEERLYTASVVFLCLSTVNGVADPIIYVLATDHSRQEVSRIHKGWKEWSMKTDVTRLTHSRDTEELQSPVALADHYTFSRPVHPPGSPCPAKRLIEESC
UniProt P35367, sequence (whole entry, looked up): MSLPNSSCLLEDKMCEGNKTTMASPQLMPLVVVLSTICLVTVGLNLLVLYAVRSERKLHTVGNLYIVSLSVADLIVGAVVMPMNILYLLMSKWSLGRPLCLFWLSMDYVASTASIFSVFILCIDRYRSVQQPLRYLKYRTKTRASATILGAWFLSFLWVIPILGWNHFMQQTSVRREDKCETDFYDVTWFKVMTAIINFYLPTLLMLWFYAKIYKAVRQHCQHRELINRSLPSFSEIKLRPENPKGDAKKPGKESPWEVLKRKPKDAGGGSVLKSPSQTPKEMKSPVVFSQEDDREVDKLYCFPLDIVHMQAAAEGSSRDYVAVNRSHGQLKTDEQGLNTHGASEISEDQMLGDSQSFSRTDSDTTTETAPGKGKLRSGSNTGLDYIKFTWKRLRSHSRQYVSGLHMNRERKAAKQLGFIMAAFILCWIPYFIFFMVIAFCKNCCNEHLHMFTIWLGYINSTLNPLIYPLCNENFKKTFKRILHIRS
UniProt P24723, sequence (whole entry, looked up): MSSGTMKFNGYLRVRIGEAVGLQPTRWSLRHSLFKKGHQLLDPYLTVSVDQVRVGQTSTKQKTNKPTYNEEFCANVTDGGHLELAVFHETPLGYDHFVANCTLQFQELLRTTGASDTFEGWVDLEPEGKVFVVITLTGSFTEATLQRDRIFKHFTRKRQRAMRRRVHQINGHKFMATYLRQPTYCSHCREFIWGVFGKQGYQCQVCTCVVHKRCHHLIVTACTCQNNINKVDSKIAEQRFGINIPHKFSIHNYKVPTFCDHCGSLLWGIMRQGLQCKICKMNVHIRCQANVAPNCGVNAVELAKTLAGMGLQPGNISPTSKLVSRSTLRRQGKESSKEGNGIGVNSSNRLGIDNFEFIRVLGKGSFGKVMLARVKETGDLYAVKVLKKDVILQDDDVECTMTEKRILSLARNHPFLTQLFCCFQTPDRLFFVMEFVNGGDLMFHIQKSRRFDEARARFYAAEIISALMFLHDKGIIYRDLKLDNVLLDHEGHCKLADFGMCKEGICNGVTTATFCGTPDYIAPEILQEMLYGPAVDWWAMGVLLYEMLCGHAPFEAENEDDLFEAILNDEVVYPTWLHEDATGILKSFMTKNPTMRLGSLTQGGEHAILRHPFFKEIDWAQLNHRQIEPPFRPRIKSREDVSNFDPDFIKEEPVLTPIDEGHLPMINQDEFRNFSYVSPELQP
UniProt Q13547, sequence (whole entry, looked up): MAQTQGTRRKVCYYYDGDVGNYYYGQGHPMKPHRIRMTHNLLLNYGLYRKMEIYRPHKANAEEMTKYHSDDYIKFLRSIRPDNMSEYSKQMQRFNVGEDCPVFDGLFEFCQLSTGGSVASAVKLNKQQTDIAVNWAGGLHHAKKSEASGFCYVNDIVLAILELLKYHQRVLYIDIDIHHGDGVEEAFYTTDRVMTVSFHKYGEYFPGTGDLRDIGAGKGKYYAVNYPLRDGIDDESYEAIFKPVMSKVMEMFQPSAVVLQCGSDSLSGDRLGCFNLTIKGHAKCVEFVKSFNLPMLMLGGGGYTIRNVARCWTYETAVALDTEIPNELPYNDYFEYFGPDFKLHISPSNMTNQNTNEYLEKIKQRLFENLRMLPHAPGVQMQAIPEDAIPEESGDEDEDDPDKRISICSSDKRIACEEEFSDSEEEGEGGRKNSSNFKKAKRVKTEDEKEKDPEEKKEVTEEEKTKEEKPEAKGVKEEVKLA

With `C[C@@H](C1=C(CCN(C)C)Cc2ccccc21)c1ccccn1.O=C(O)/C=C\C(=O)O` the efficacy was -103 ± 7.19% (BCHE; inhibitor; Triton).
For `O=C(Nc1cnccc1Cl)N1CCN(Cc2ccc3c(c2)OC(F)(F)O3)CC1`, the inhibition was -8% (glycine transporter, rat; binding; 10 µM, added: [3H]glycine).
`CC(C)C[C@H](NC(=O)[C@H](CCC(N)=O)NC(=O)[C@H](CO)NC(=O)[C@H](CO)NC(=O)[C@H](CCCNC(=N)N)NC(=O)[C@H](CCCNC(=N)N)NC(=O)[C@H](CCCNC(=N)N)NC(=O)[C@H](CC(C)C)NC(=O)[C@H](Cc1c[nH]cn1)NC(=O)[C@@H](NC(=O)[C@H](CCCCN)NC(=O)[C@H](CCCNC(=N)N)NC(=O)[C@H](CCCNC(=N)N)NC(=O)[C@H](CCCNC(=N)N)NC(=O)[C@H](CCC(N)=O)NC(=O)[C@H](CCCNC(=N)N)NC(=O)[C@H](CCCNC(=N)N)NC(=O)[C@H](CCCCN)NC(=O)[C@H](CCCCN)NC(=O)[C@H](CCCNC(=N)N)NC(=O)CNC(=O)[C@@H](N)Cc1ccc(O)cc1)[C@@H](C)O)C(=O)N[C@@H](CCCCN)C(N)=O` — result for mIPSC amplitude: “increased” (rat CA1 pyramidal neurons; GABAA receptor-mediated mIPSCs; concentration not given).
For `C[C@H]1CN(c2n[nH]c3nc(N[C@H]4CC[C@H](NS(=O)(=O)CCC(F)(F)F)CC4)ncc23)CCO1`, the relative abundance was 1.06 (Histone deacetylase 1 (HDAC1, Homo sapiens, UniProt Q13547); inhibitor, Kinobeads competition profiling; 0.16 µM; reference: vehicle).
The efficacy of `CC1(N2CCC(n3c([C@@H]4CCCNC4)nc4ccccc43)CC2)CCCCCCC1` is reported as -103 ± 19.9% (BCHE; concentration not given, Triton).
`CC[C@H](C)[C@H](NC(=O)CNC(=O)[C@@H](N)CCCCN)C(=O)N[C@@H](CC(C)C)C(=O)N[C@@H](CCCCN)C(=O)N[C@@H](CCCNC(=N)N)C(=O)N[C@@H](CCC(=O)O)C(=O)N[C@@H](CCCCN)C(=O)N[C@@H](CCCNC(=N)N)C(=O)N[C@@H](CC(C)C)C(=O)N[C@@H](CCCNC(=N)N)C(=O)N[C@@H](CCCNC(=N)N)C(=O)N[C@@H](CCCCN)C(=O)N[C@@H](CC(N)=O)C(=O)N[C@H](C(=O)N[C@@H](Cc1c[nH]cn1)C(=O)N[C@@H](Cc1c[nH]c2ccccc12)C(=O)N1CCC[C@H]1C(=O)N[C@@H](CCC(=O)O)C(=O)N[C@@H](CCC(=O)O)C(=O)NCC(=O)N[C@@H](CCCCN)C(=O)N[C@@H](CC(C)C)C(=O)N[C@@H](CCCNC(=N)N)C(=O)N[C@@H](CCC(=O)O)C(=O)N[C@@H](Cc1ccccc1)C(=O)N[C@@H](Cc1ccccc1)C(=O)N[C@@H](Cc1ccccc1)C(=O)N[C@@H](Cc1ccccc1)C(=O)N[C@@H](CCC(=O)O)C(=O)N[C@@H](CC(C)C)C(=O)N[C@@H](CC(=O)O)C(=O)N[C@@H](CCC(=O)O)C(=O)N[C@@H](C)C(=O)N[C@@H](CCC(=O)O)C(=O)N[C@@H](CCCNC(=N)N)C(=O)N[C@H](C(=O)N[C@@H](CC(N)=O)C(=O)N[C@H](C(=O)O)C(C)C)C(C)C)C(C)C`: “log2 fold change” -0.01 (HeLa and HEK-293T cells; phosphatase bead binding, competitive inhibitor, PIB pulldown iBAQ LC-MS/MS, measured: PPP4R4; concentration not given; reference: untreated control).
For `Cl.Cl.Clc1ccccc1CNCC1CCC(CNCc2ccccc2Cl)CC1` (centres unmarked), the efficacy was -90.8 ± 8.78% (BCHE; inhibitor; Triton).
The probe labelling of `CN(C(=O)n1cnc(-c2ccc[n+]([O-])c2)c1)C1CCCCC1` is reported as -2.6 (Protein S100-A16 (Rattus norvegicus, UniProt A0ACM8QDC9); competitive ABPP with azido-FP probe; rat brain membrane fraction; 100 µM, unit not given; reference: DMSO).
For `CCc1cccc(N(C)C(=N)Nc2cccc3ccccc23)c1`, the IC50 was 12.6 µM (Plasmodium falciparum; D10).
`O=C(NCCCCN1CCN(c2cccc(Cl)c2Cl)CC1)c1cc2ccccc2s1` has an efficacy of -70 ± 11% (BCHE; concentration not given, Triton).
`O=C(Nc1cccnn1)N1CCC(=Cc2cccc(Oc3ccc(C(F)(F)F)cn3)c2)CC1` has an inhibition of 104% (GABAA receptor chloride channel, rat; binding; 50 µM, added: [3H]TBOB).
For `Cc1ccc(-n2nccn2)c(C(=O)N2CCN(c3nc4cc(Cl)ccc4o3)CC[C@H]2C)c1`, “normalised fluorescence response” read 0.235 and -0.289 and -0.33 and -0.187 and -0.138 and -0.0669 (Orexin receptor type 2 (HCRTR2, Homo sapiens, UniProt O43614, del254-292/I293E/K294R/L160H/M161K/Q254E); fluorescence sensor response, fluorescence; concentration not given, added: OXA).
`COc1ccc(N2C(=O)N(c3c(C)cccc3Cl)Cc3cnc(Nc4ccc(C5CCN(C)CC5)cc4OC)nc32)nc1` has an inhibition of 4% (Protein kinase C eta type (PRKCH, Homo sapiens, UniProt P24723); kinase activity, inhibitor; 0.5 µM, kinase PKC-ETA).
With `Cl.Nc1c2c(nc3c1CCC3)CCCC2.O` the efficacy was -102 ± 9.66% (BCHE; concentration not given, Triton).
Under “log2 fold change”, `Oc1ccc2c3c1O[C@H]1[C@@H](O)CC[C@@]4(O)[C@@H](C2)N(CC2CCC2)CC[C@]314` is recorded as -0.169 (Probable G-protein coupled receptor 132 (GPR132, Homo sapiens, UniProt Q9UNW8); β-arrestin recruitment, TANGO luminescence; concentration not given; reference: basal luminescence).
`CN1CCN(c2cc(-c3ccncc3)c(-c3ccc4ccccc4c3)nn2)CC1` gave an activation of -0.1% (Histamine H1 receptor (HRH1, Homo sapiens, UniProt P35367); agonist, FLIPR; 12.5 µM).
The efficacy of `CCOC(=O)C(=O)c1csc(NC=O)n1` is reported as -87.1 ± 6.19% (BCHE; concentration not given, Triton).
`O=C(Cc1ccc(Cl)c(Cl)c1)N1CCCCC1CN1CCCC1` (centres unmarked) has an IC50 of 1.58 µM (Plasmodium falciparum; GB4).
For `O=C(c1ccc(Cl)cc1)N1CCN2C(=O)N(OC(=O)N3CCOc4ccccc43)C(=O)C2C1` (centres unmarked), the peptide ratio was 1.14 and 0.77 (Prolyl endopeptidase FAP (FAP, Homo sapiens, UniProt Q12884); MS-based ABPP; SW-620 conditioned medium; 10 µM, 1 h, 37 °C; reference: compound over DMSO, lower = more inhibition).
`CN[C@]1(c2ccccc2Cl)CCCCC1=O` has an inhibition of 5% (D(2) dopamine receptor (DRD2, Homo sapiens, UniProt P14416); radioligand binding, antagonist, radioligand displacement; 30 µM, long isoform).

Excerpt of the above:
The efficacy of `CC1(N2CCC(n3c([C@@H]4CCCNC4)nc4ccccc43)CC2)CCCCCCC1` is reported as -103 ± 19.9% (BCHE; concentration not given, Triton).
Under “log2 fold change”, `Oc1ccc2c3c1O[C@H]1[C@@H](O)CC[C@@]4(O)[C@@H](C2)N(CC2CCC2)CC[C@]314` is recorded as -0.169 (Probable G-protein coupled receptor 132 (GPR132, Homo sapiens, UniProt Q9UNW8); β-arrestin recruitment, TANGO luminescence; concentration not given; reference: basal luminescence).
For `Cc1ccc(-n2nccn2)c(C(=O)N2CCN(c3nc4cc(Cl)ccc4o3)CC[C@H]2C)c1`, “normalised fluorescence response” read 0.235 and -0.289 and -0.33 and -0.187 and -0.138 and -0.0669 (Orexin receptor type 2 (HCRTR2, Homo sapiens, UniProt O43614, del254-292/I293E/K294R/L160H/M161K/Q254E); fluorescence sensor response, fluorescence; concentration not given, added: OXA).
